Measurements gathered from unrelated publications.
A part holds a random share of what one study measured. Changes are numbered by the printed parent chain.

Set 1 — target: NFE2L1, bZIP domain (human); technique: DHFR protein complementation; matrix: yeast; relative to: wild-type JUN-FOS pair; direction: higher = stronger binding
Notes: single substitutions, most at no-binding floor
Starting sequence: JUN, bZIP domain (human); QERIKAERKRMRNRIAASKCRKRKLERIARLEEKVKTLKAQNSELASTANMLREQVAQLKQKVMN; partner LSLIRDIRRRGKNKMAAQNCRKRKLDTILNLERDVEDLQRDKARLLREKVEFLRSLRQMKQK
With `E32L` the binding fitness was -1.49 natural log.
The binding fitness of `V35H` is reported as -1.52 natural log.
`V35S` gave a binding fitness of -1.36 natural log.
`K36D` gave a binding fitness of -1.47 natural log.
`K34H` gave a binding fitness of -1.32 natural log.

Set 2 — technique: RNA Bind-n-Seq; molecule type: RNA; matrix: in vitro; concentration: 365 nM; relative to: no-protein control; direction: higher = stronger binding
Target: RNA binding protein fox-1 homolog 2, RRM domain, GST-SBP tag (RBFOX2, Homo sapiens, UniProt O43251-10, residues 100-194)
Notes: natural RNA segment, single round, ends assumed
All sequences stand within: GGGAGUUCUACAGUCCGACGAUC … UGGAAUUCUCGGGUGCCAA
Construct (chain): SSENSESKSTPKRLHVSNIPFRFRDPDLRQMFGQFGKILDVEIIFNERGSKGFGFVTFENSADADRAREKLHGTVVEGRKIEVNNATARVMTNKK
`CAGCAUUUUCCUGCCAUGCAAAGGAUUAAAACUUAGUUUACACUAUGUGGUUACAAAUAUAUGUCAAUGUACAUUUUGAACAUAUUUAUGUGCUAUGGAAGGAAAUGCUG` — result for “RBNS enrichment (R)”: 0.339.
Under “RBNS enrichment (R)”, `AAAAAAAAGGUCUGUUCCUGCUACCUUUUAGGACUGAAGUUUUAAGCACUGGUACCCACUGUGGGGCAAACCUGUGCUGCAGGAGGGAGCCUGGCAUACACACUCUGCAU` is recorded as 0.6.
Under “RBNS enrichment (R)”, `AAUCCCUCCUCCCUCUAAACAGUCCCCCAGAAAACAGGCUGGUGGCCAUGUGCUUUGCAUCUUUCUUAUUUGAUUCUUUUAAAGAAGUGUAGGGAGGAAAACCUGUCAUU` is recorded as 0.362.
`UGAAAAGGUACACAUGUAAAAUUUAGGAAAAUAACUAAAGUAGGGGCUGGAACCAUAAGAAGAAUGUUUAUCAGCACGUUCAUUUAUUAUUUUGGAUUUGGAACUUGGCU`: “RBNS enrichment (R)” 2.25.
`GUGUGUUGAGGGACUGGUGUAUCCACUGGAAUAGUUGGUACUCUUGGAUGUGUUUUCUCACCAAGAUGAGCAAAGAAAGGUUUGCACAGAGGAGUGUGAAUGUGUGUUUG`: “RBNS enrichment (R)” 1.91.
Under “RBNS enrichment (R)”, `CAGUUGUGGGUCACUGUCCCUUCCAGCUGCCCCAGACAGGAAGCAGAGUCACCACGCAGCAGUGUCCCUUCUUGGGUCUGAGUUCCUAUUAUAGGUAGGGGCCCCACCCU` is recorded as 0.324.

Set 3 — technique: RNA Bind-n-Seq; molecule type: RNA; matrix: in vitro; concentration: 200 nM; notes: whole 134-nt RNA, ends assumed; added: 150 mM LiCl; relative to: input library; direction: higher = stronger binding; each molecule: 7-deaza-guanosine replaces G
Target: Fragile X messenger ribonucleoprotein 1, C-terminal low-complexity region (Fmr1, Mus musculus, UniProt P35922)
All sequences stand within: GGGAGUUCUACAGUCCGACGAUC … UGGAAUUCUCGGGUGUCAAGG
`UAACUUUAGAGGAGGAUCUGAUGGAUAUGGCAGUGGUCGUGGAUUUGGGGAUGGCUAUAAUGGGUAUGGAGGAGGACCUGGAGGUGGCAA` gave a log2 enrichment of 9.53e-05.
`GCAGGAAGUAAAAUCAAAUGGAAAUGCUUCGGAUAGUGGCAGGGGUGGGGGUUGCUAAGGAAAGGGUGGGAUGGGAGUGGGUAAAGAGUU` gave a log2 enrichment of 1.38.
`UGUGCUACACAUCGUAUGUACCGAAUCGGUUUUUUUGGGGUUUUUUUGGGGUUUUUUUGGGGAAAGUAUUAUGUUACGCCGUUCGGAUCU` has a log2 enrichment of 1.75.
For `CACAGACAACACGCACCCACACAGACACAGAGGGAAGGGGUUGGGAUGGGGACAGGGUACACAGCAGGGCGGGGUAGGACCCCAGCCCCU`, the log2 enrichment was 0.459.
`AGUCCUGUGCUACACAUCGUAUGUACCGAAUCGGGAGGGAAAAAGGGUUUUUUUGGGAAAGUAUUAUGUUACGCCGUUCGGAUCUGCACU` has a log2 enrichment of -1.8.
With `UCCUGUGCUACACAUCGUAUGUACCGAAUCAAACCCAAAUUUUUUUAAACCCCCCCAAAAAAGUAUUAUGUUACGCCGUUCGGAUCUGCA` the log2 enrichment was 1.95.
`AAGUCCUGUGCUACACAUCGUAUGUACCGAAUCGGGGAAAGGGGAAAGGGAAAGGGAAAGUAUUAUGUUACGCCGUUCGGAUCUGCACUU` has a log2 enrichment of 0.183.

Single results of other studies
With `PhoQ, residues 284 288 289 292 302 303 SLSLLA` the fold induction was 13.3 (PhoP, residues 12 14 15 18 19 NNFVT (Escherichia coli, UniProt P23836); Sort-seq, measured: YFP reporter; E. coli; PhoQ-PhoP variant library, added: 10 µM Mg2+; relative to: high Mg2+ state, higher = stronger signaling).

Excerpt of the above (set 3):
For `CACAGACAACACGCACCCACACAGACACAGAGGGAAGGGGUUGGGAUGGGGACAGGGUACACAGCAGGGCGGGGUAGGACCCCAGCCCCU`, the log2 enrichment was 0.459.
`AGUCCUGUGCUACACAUCGUAUGUACCGAAUCGGGAGGGAAAAAGGGUUUUUUUGGGAAAGUAUUAUGUUACGCCGUUCGGAUCUGCACU` has a log2 enrichment of -1.8.
With `UCCUGUGCUACACAUCGUAUGUACCGAAUCAAACCCAAAUUUUUUUAAACCCCCCCAAAAAAGUAUUAUGUUACGCCGUUCGGAUCUGCA` the log2 enrichment was 1.95.
